Assay results pooled from the literature.
Parts stem from different laboratories: compare values within a part only.
UniProt P61075, sequence (whole entry, looked up): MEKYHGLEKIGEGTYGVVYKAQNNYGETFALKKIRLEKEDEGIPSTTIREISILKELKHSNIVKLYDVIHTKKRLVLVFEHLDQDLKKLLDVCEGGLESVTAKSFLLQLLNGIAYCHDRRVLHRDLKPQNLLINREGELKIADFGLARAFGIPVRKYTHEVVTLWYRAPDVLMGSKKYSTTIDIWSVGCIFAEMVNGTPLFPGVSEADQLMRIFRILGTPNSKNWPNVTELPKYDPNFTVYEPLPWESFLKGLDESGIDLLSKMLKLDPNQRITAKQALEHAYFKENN
UniProt Q8WXR4, sequence (whole entry, looked up): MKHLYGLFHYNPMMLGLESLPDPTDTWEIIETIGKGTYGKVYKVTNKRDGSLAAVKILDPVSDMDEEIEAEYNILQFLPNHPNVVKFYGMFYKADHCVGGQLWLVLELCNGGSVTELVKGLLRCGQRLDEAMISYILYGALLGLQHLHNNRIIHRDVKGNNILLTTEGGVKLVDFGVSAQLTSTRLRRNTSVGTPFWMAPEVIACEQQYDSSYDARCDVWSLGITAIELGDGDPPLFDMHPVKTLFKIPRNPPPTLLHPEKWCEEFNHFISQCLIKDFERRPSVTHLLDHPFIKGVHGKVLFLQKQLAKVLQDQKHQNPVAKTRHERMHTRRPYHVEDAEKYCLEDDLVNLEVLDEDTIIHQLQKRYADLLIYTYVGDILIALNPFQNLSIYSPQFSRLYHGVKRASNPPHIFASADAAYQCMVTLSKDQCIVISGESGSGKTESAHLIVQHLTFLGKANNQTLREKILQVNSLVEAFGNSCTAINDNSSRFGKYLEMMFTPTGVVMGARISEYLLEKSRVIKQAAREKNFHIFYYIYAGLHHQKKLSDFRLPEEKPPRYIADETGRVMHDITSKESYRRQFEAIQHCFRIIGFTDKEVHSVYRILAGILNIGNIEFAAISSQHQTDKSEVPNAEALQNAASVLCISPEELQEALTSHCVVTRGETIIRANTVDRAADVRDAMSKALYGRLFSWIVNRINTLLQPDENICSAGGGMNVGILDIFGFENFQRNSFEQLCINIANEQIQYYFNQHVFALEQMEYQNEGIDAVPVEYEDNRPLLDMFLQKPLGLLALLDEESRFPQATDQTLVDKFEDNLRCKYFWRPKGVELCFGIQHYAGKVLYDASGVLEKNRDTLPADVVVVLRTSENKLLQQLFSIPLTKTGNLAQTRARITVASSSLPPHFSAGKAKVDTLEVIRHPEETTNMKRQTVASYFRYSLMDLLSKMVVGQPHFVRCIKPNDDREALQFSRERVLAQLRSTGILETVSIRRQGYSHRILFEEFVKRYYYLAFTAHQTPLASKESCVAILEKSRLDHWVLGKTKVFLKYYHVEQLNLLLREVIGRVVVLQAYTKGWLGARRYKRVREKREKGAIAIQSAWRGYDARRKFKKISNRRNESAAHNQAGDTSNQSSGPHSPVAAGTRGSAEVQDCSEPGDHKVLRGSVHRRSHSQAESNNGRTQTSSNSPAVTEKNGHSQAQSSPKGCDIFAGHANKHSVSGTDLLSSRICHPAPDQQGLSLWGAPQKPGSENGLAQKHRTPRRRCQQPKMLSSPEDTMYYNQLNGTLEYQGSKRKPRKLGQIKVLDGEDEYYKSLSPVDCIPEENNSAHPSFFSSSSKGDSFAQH

Set 1
Host: mouse
Medium: microsomes or S9
Tested at: 2 µM
Time: 0.5 h
With `CCOC(=O)Cc1c(-c2cc3ccccc3n2C)[nH]c2ccccc12` the remaining compound was 0.492%.
`CCc1nc(-c2cccc(-c3noc(-c4ccc(Br)o4)n3)c2)cs1` has a remaining compound of 44.9%.
`CS(=O)(=O)c1ccc(-c2cc(F)c(OCC3CCNCC3)c(F)c2)cc1` has a remaining compound of 42.5%.
`CCn1nc(N2CCCC(NC(=O)c3cn[nH]c3)C2)ccc1=O` (stereo not drawn) has a remaining compound of 48.1%.
`C[C@H](Nc1ncnc2[nH]cnc12)c1cc2ccccc2nc1-c1ccccc1` has a remaining compound of 31.8%.
For `COCCOCC(=O)NCC1CCCCC(=O)N1` (stereo not drawn), the remaining compound was 96.2%.
For `C/C(=C/c1cnc2ccsc2c1)c1cnccn1`, the remaining compound was 2.15%.
The remaining compound of `O=C(CCCCCNc1ncccn1)Nc1nc[nH]n1` is reported as 75.9%.

Set 2
Target: Calcium/calmodulin-dependent protein kinase type II subunit alpha (CAMK2A, Homo sapiens, UniProt Q9UQM7)
UniProt Q9UQM7, sequence (whole entry, looked up): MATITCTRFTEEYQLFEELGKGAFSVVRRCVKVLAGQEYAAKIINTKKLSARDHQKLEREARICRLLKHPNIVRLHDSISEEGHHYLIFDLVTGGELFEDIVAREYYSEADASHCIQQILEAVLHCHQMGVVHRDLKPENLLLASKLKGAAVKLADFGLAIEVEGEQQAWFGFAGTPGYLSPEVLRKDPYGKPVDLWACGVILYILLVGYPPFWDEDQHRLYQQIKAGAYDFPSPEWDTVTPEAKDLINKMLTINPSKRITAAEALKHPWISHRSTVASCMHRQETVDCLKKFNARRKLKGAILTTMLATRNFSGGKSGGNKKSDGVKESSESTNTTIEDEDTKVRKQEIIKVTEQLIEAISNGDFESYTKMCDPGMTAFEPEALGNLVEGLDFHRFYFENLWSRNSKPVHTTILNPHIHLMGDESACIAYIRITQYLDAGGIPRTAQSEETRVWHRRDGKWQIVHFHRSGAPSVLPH
Read-out: enzyme activity
Action: inhibitor
Tested at: 10 µM
`CC(C)[C@@H](C)[C@@H](O)[C@H](O)[C@@H](C)[C@H]1CC[C@H]2[C@@H]3COC(=O)[C@H]4C[C@H](O)[C@H](O)C[C@]4(C)[C@H]3CC[C@]12C` has an inhibition of -14%.
With `CCC(c1ccccc1)c1c(O)c2ccccc2oc1=O` (stereo not drawn) the inhibition was 1%.
`CCn1c(=O)c2c(nc(/C=C/c3ccc(OC)c(OC)c3)n2C)n(CC)c1=O` gave an inhibition of 3%.
`COc1cc2oc(=O)ccc2c(OC)c1C[C@@H](O)C(C)(C)O` gave an inhibition of -29%.
With `CCCCN1C[C@H](O)[C@@H](O)[C@H](O)[C@H]1CO` the inhibition was -13%.
`CN[C@@H]1[C@@H](O[C@H]2O[C@H](CO)[C@@H](N)[C@H](O)[C@H]2O)O[C@H]2C[C@@H](N)[C@@H](O[C@H]3[C@H](O)[C@@H](O)[C@H](N)C[C@@H]3N)O[C@@H]2[C@@H]1O` has an inhibition of -19%.
For `CCC/C=C1\OC(=O)C2=C1CC[C@H]1[C@H]3C=C4C(=O)O/C(=C\CCC)[C@@]4(CC3)[C@@H]21`, the inhibition was -17%.
For `O=Cc1ccc(O)cc1`, the inhibition was -14%.

Other studies, line by line
`O=S(=O)(NC1CCC(c2cc(F)ccc2F)(S(=O)(=O)c2ccc(Cl)cc2)CC1)C(F)(F)F` (stereo not drawn) gave a remaining binding of 100% (CRK2 (Plasmodium falciparum, UniProt P61075); cell-free assay, competition with immobilised ligand; 1 µM).
The remaining signal of `CNC(=O)c1cc(Oc2ccc(NC(=O)Nc3ccc(Cl)c(C(F)(F)F)c3)cc2)ccn1` is reported as 85.6% (Myosin-IIIb (MYO3B, Homo sapiens, UniProt Q8WXR4); cell-free assay; 0.5 µM).
For `FTDNNELEF`, binding read “inactive” (HLA class I histocompatibility antigen, C alpha chain, allele C*04:01 (Homo sapiens, UniProt P10321); peptide-MHC binding; peptide; concentration not given).
For `COc1ccc(-c2c(Nc3ccccn3)[nH]c3c(C4=CCCCC4)c(-c4ccccc4)nn3c2=O)cc1`, the Tmax was 6 h (human, plasma; oral, 50 mg once daily).
`C[C@@H](Oc1cc(-c2cnn(C3CCNCC3)c2)cnc1N)c1c(Cl)ccc(F)c1Cl` gave a GI50 of 20 nM (M091-TA; cell growth, alamarBlue; 48 h).

Some of these lines once more (set 2):
`CCn1c(=O)c2c(nc(/C=C/c3ccc(OC)c(OC)c3)n2C)n(CC)c1=O` gave an inhibition of 3%.
`CC(C)[C@@H](C)[C@@H](O)[C@H](O)[C@@H](C)[C@H]1CC[C@H]2[C@@H]3COC(=O)[C@H]4C[C@H](O)[C@H](O)C[C@]4(C)[C@H]3CC[C@]12C` has an inhibition of -14%.
